Assay results of several laboratories.
Every numbered part comes from another study and shows a few of its results, in no order. Positions count from the first letter of the parent shown.

Study 1
Target: Histone acetyltransferase KAT6A, both winged helices, GST fusion (KAT6A, Homo sapiens, UniProt Q92794, residues 1-181)
Technique: protein binding microarray
Form: double-stranded DNA, one strand shown
Matrix: in vitro
Concentration: not given
Setting: 8-mer, flanks averaged, mean of 2 arrays, mostly near background
Baseline: not given
Direction: higher = stronger binding
Endpoint: E-score
Target sequence (chain): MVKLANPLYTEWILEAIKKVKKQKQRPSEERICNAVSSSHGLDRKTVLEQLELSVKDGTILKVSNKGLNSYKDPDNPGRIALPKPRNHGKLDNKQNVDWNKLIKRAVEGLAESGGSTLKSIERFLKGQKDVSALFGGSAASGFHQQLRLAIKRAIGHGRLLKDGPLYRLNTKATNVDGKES
CCAATAGG: -0.267
ACGTAGCG: 0.118
ATCCGCAC: 0.215
AATTATTG: -0.0886
GGACGAAA: 0.147
CGATGTAA: 0.109
CCCTACAG: -0.15
CTTTTTCA: -0.166
CAAGGGAA: -0.233
GTATTCTA: -0.0486
CGCTAATA: 0.223
AGGAACGG: 0.143
ATTTAAGG: -0.146
CACCGTAC: 0.182
ATTTTATG: -5e-05
ATAAGTAG: -0.0736
CGAAACAG: -0.0213

Study 2
Target: RING finger protein unkempt homolog, zinc fingers 1-6, GST-SBP tag (UNK, Homo sapiens, UniProt Q9C0B0, residues 30-357)
Technique: RNA Bind-n-Seq
Form: RNA
Matrix: in vitro
Concentration: not given
Setting: RNA with constant flanks, human and mouse sites, ends assumed
Baseline: input RNA pool
Direction: higher = stronger binding
Endpoint: bound/input enrichment
All sequences stand within: GGGAGUUCUACAGUCCGACGAUC … CAACAGAGGAUUGAGCAUCA
Residues (chain): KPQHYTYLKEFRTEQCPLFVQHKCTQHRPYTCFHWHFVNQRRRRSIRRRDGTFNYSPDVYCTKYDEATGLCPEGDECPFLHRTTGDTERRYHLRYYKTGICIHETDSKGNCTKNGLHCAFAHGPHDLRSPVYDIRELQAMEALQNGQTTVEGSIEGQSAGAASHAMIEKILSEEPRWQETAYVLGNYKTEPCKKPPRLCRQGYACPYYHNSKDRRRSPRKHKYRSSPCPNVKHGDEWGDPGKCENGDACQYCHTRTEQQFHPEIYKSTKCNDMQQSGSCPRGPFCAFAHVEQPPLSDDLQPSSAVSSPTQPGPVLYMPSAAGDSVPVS
GGCGGUGGCUCCGAGAUAGGGGUCUUUCAUCUGGGGGUGCCUGUGGAGGCCUUGUUCUUCGUCGGGAACCAGCUCAUUGCUACAAGCCACACAGGGCGCAUCGGGGUGUGGAAUGCCGUC: 0.379 ratio
UUUUAACAAAUGUUUUCAUUUACAGGAAAACGCAAAGAAAAUUUUGAAACGAUGGUCUUUCUUUUUAAUUAUUAUUUUAAGUGUUUUUUGUAAGACAAAAAUUGAAGUUUUUUUAAGGUU: 0.615 ratio
ACCAGCACAUUUUCUGAAUACACAGUUGUGGCUGAUAUCUCUGUUGCUAAAAUAGAUCCUUUAGCACCUUUGGAUAAAGUCUGCCUUCUAGGUUGUGGCAUUUCAACCGGUUAUGGUGCU: 1.01 ratio
ACCGCCAUCUACUGCUUCCUGCGCUGCAUGGAGCCUCACCCUGAGAUCCCCUCCACCUUCAACAGUCUCCAGAGGACUCUCAUCUACUCCAUCUCACUUGGUGGGGACACAGACACCAUA: 0.238 ratio
AAAUCAGAGGAACAUUGUGAAUUUGUAAAAUGACUUCUGUUUUCUCAAAGGCCAUGCCAUUGUAAAUUGUUAGUGUUCGCCAAAGGACAGCCAAGCUUUCUUUUAAAAAGUGAUAAAAGU: 0.151 ratio
AUGCAUGAGCCGCCCCACAUUCCCACUCCUGUAUGUAUCGGACACAGAGACGCUCCCUCCUUCUCCUCCCCGCCACGCCAGGCCCCCGAGCCUUCCCUCUUCUUCCAGGAUCCUCCUGGG: 0.504 ratio
AUUAAUGCGCUAAUGCACGCAUUGACUGACUUAAGAAAGAAGAAUCCCAACAUAAAAAGUUUGGUUGUUUCUCAGUUUACAACAUUCCUGUCUUUAAUAGAAAUACCACUUAAAGCCUCU: 0.265 ratio
UUCUCUUCUUCCGUGGUAGGAAGCCUCCCCAUGUACUCAUGCCUCGAGCUGUUUCUAAGCUAGCUGACUGCUGCACUGCUGUGAGCAGUAUCUUAACCCUCCUCUUUGCCAGGGGAGAAU: 0.481 ratio
GGCGGGGCAUCUGAUGCCCUCCUCUACAGAGCCACAAUGGCUCUGACGCUUGGUGGCACAGCCUAUGCCAUCUAUCUGUUAGCUAUGGCUGCAUUUCCCAAGAAGCAGAACUAAUGUCGU: 0.185 ratio
GCAAGGCCAGAAGAACUGACUCCUCACGUAAUGGUGCUUCUGGCCCAACACCUGGCCCGGCACCGCUUGCGGGAACCCCAACUUCUGGAAGCCAUUGCUCAUUUCCUGGUGGUUCAGGAA: 0.0756 ratio
GAAGAUGACUCUCAAGAAGAGGAAGAAGUCAGCCUACCCAAACGAGGAAGACCACAAGUUAGAUUGCCAGUUAAAACAAGAGGGAAACUUAGCUCUUCUUUCUCAAGUCGUGGCCAACAA: 0.27 ratio

Study 3
Target: CCNE2, cyclin fold, Cln2 fusion (human)
Technique: yeast growth competition, sequencing
Matrix: yeast
Setting: strong parent motif
Baseline: not given
Direction: higher = stronger binding
Endpoint: normalised enrichment score
Parent: GMNC docking peptide (human); KNAKRNLSSEFAN; partner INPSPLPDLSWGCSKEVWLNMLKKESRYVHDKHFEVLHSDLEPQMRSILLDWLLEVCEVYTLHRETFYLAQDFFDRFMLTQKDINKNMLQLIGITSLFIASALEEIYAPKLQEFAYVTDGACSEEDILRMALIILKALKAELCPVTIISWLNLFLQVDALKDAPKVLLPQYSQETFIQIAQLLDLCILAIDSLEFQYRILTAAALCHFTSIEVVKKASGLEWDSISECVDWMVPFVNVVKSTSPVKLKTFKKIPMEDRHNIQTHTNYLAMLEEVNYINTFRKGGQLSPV
KNAKRILSSEFAN [N6I]: 0.287
KNAKRNLSEEFAN [S9E]: 1.63
KNAKRNLSSEYAN [F11Y]: 0.264
KNAKRNLSHEFAN [S9H]: 1.8
KNAKRNPSSEFAN [L7P]: 0.58
KNAKRNLSDEFAN [S9D]: 1.28
KNAKRNLCSEFAN [S8C]: 1.36
KCAKRNLSSEFAN [N2C]: 1.31
KNAKRNLSWEFAN [S9W]: 1.82
KNASRNLSSEFAN [K4S]: 0.369
KNTKRNLSSEFAN [A3T]: 0.8
KNAKRNLTSEFAN [S8T]: 0.899
KGAKRNLSSEFAN [N2G]: 2.67
KNLKRNLSSEFAN [A3L]: 0.891
KNAKRNLSREFAN [S9R]: 2.56
KNAHRNLSSEFAN [K4H]: 0.0981
KNAKRNLLSEFAN [S8L]: 2.8

Study 4
Target: Fragile X messenger ribonucleoprotein 1, C-terminal low-complexity region (Fmr1, Mus musculus, UniProt P35922)
Technique: RNA Bind-n-Seq
Form: RNA
Matrix: in vitro
Concentration: 200 nM
Setting: whole 134-nt RNA, ends assumed
Together with: 150 mM LiCl
Baseline: input library
Direction: higher = stronger binding
Endpoint: log2 enrichment
All molecules: 7-deaza-guanosine replaces G
All sequences stand within: GGGAGUUCUACAGUCCGACGAUC … UGGAAUUCUCGGGUGUCAAGG
CCUCAAGUCCUGUGCUACACAUCGUAUGUACCGAAUCGGGUUGGUUGGUUGGGAAAGUAUUAUGUUACGCCGUUCGGAUCUGCACUUCCA: -0.631
CACAGACAACACGCACCCACAAAGACACAGAGGGAAGGGGUUGGGAUGGGGACAGGGUGCACAGCAGGGCGGGGUAGGACCCCAGCCCCU: 0.302
UGGGAGGUGGAUUUUGUUCAUUUUUUUAGCUCAUUUCCAGGGGUGGGAAUUUUUUUUUAAUAUGUGUCAUGAAUAAAGUUGUUUUUGAAA: 0.13
CUCAAGUCCUGUGCUACACAUCGUAUGUACCGAAUCGGGUGGGAGGGUUUGGGAAAGUAUUAUGUUACGCCGUUCGGAUCUGCACUUCCA: -0.354
AGUCCUGUGCUACACAUCGUAUGUACCGAAUCGGGGUUUUUUUGGGGUGGGGAGGGGAAAGUAUUAUGUUACGCCGUUCGGAUCUGCACU: 0.364
AGUCCUGUGCUACACAUCGUAUGUACCGAAUCGGGUUUGGGAAAGGGAAAAAAAGGGAAAGUAUUAUGUUACGCCGUUCGGAUCUGCACU: -0.684
CUCAAGUCCUGUGCUACACAUCGUAUGUACCGAAUCGGGUGGGGUGGGGUGGGGAAAGUAUUAUGUUACGCCGUUCGGAUCUGCACUUCC: -0.615
GUCCUGUGCUACACAUCGUAUGUACCGAAUCGGGGAAAAAGGGAAAAAGGAAAAAGGGAAAGUAUUAUGUUACGCCGUUCGGAUCUGCAC: 0.229
GUCCUGUGCUACACAUCGUAUGUACCGAAUCGGAAAAAGGAAAAAAAGGAAAAAAAGGAAAGUAUUAUGUUACGCCGUUCGGAUCUGCAC: -0.467
GUCCUGUGCUACACAUCGUAUGUACCGAAUCGGGGAAAAAGGGGAAAAAGGGGAGGGGAAAGUAUUAUGUUACGCCGUUCGGAUCUGCAC: 0.778
AGUCCUGUGCUACACAUCGUAUGUACCGAAUCGGGUUUUUGGGAGGGUUUUUUUGGGAAAGUAUUAUGUUACGCCGUUCGGAUCUGCACU: -1.41

Study 5
Target: RNA binding protein fox-1 homolog 2, RRM domain, GST-SBP tag (RBFOX2, Homo sapiens, UniProt O43251-10, residues 100-194)
Technique: RNA Bind-n-Seq
Form: RNA
Matrix: in vitro
Concentration: 365 nM
Setting: natural RNA segment, single round, ends assumed
Baseline: no-protein control
Direction: higher = stronger binding
Endpoint: RBNS enrichment (R)
All sequences stand within: GGGAGUUCUACAGUCCGACGAUC … UGGAAUUCUCGGGUGCCAA
Target sequence (chain): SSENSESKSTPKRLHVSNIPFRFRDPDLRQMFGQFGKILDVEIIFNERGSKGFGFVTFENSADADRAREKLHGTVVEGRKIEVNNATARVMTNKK
GCUCUUCAGCAUGGCAGGACGUGUAAUGAGGGCUUUCGCAAGUCCUUCAGCGCUGCAGAGCAGUAAGCUAUCCAUCCAGUGAGUGUGGCGGCUCUUUCUACAGCUGAACU: 0.572
ACUGAGACACAUGAAAUAAGAUAAAUCUUUUUUUUAAAUCUAAAAUGGAAGGCUACUAGGAGCCACUACACUAACCUUUCUUCAUGCAUAAAUCCAAUGAGUACUACCCC: 0.556
GAGGUCAACAGCAGAACAGAGGCAGGUCAGGGUUGUCCGCUCUGAUUAGCAGAACGACAGCCCCUUCCUCCUCCUCCCUCCUUCCCAUCCCUACUCAUUAGCUCCCUGCU: 0.406
GACGGAUGAUAUAUAAUGAUAAUAGAAUAGCACAUUCAGACUUACUUCCUGCAUGAUAGGGAGAGACAAGAAAGAAGAAAUGCUAUUCCACAAGGAAUCUCUUAGAGUUU: 8.68
CUCAUUUCCCCUAAACAACUGGCACAGCAGGUUGACCAUCCUUAAACUGCUGUGAAACAUGCCACGUCCUGCAGGCGUCCAGUCAAUCAUCCAGUGUGCUCCCCUAAAAA: 0.474
CCGCCUCCCGGGUUCAAGUGAUCGUCCUGCCUUAGGCUCCUGAGUAGCUGGGGAUUACAGGUGCCUACCAGCAUGCUCGGCUAAUUUUUUUGUAUUUUUAGUAGAGAAGG: 0.873
GGUGAAGGAAAGCAAGCUCACCGCCUGAACACGGAGAUUGUCUUUCUGCCACAGAACAGCAGCAGACGUGUCGGGAGGUUAGCUGCGGAAAGAAAUCGGGAUGCCGCGGA: 0.295
CACAGGGGAAUGGGGUUACUUCUGUCUGAUCCUGGGCCUUUCUUUCAUCCCAAAUGACAAGGAAUGUGGCUCAGAGAAGGGUUUUUCUUUUUUGACCUUUCUUCUCUCAA: 0.542
ACAGUGAGAGGUACCUUCCUUCUCUUUCUCAUACACACAGAUCACUAGCAAGGACUAAAGAAUUUUAUAUCAAAAUUCUCCAGGCAUGUACCAGUUCGGGUUAAUAAAAU: 0.84
AGCGAGGUCAACAGAGAAGGCAGGAAUGUGUGGCAGAUUUAGUGAAAGCUAGAGAUAUGGCAGCGAAAGGAUGUAAACAGUGCCUGCUGAAUGAUUUCCAAAGAGAAAAA: 2.05
AAAUCAGUGAAAUGUACCUUAUACUUUAAUAAAAAAUGUUUUCAGAAAUAGAUAAGUGAAAGCUGAGUGUUUCUUUGAUAGGUUCCCCUGUACUAUAGGAGUGAUAAUUG: 0.442
ACACAAGCAUCAUGCAGUGGCGCGUCAUUUAUACCCACCGAGAGCUGUGGGGAGCAGCAUGGGCAAGGAAGACACAGACUCGCAUUACCCUUGGUCACUGUGAUUUCUGU: 1.06

A few entries again (study 1):
AATTATTG: -0.0886
GGACGAAA: 0.147
CGATGTAA: 0.109
CCCTACAG: -0.15
CTTTTTCA: -0.166
CAAGGGAA: -0.233
GTATTCTA: -0.0486
